Results gathered from unrelated publications.
A part holds a random share of what one study measured. Values joined by “and” are separate records of one study, mostly repeats; a detail may differ.
Chain of UniProt Q14680 (whole entry, looked up): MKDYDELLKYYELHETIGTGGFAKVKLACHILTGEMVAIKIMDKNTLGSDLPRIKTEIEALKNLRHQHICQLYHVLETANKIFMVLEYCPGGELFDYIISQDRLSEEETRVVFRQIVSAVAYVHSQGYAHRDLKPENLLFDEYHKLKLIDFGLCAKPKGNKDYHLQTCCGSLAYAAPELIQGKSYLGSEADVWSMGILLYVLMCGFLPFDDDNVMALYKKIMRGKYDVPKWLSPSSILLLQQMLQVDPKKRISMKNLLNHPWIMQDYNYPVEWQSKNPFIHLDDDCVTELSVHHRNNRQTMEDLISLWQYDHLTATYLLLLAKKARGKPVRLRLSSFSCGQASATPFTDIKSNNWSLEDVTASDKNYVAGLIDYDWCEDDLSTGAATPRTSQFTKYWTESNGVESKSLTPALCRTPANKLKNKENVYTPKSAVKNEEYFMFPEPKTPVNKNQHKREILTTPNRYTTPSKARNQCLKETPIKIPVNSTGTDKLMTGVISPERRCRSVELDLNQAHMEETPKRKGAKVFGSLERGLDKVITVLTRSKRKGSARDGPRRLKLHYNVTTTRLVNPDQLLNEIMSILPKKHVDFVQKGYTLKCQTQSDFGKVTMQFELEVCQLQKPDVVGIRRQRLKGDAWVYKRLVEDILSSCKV
Chain of UniProt Q9P0L2 (whole entry, looked up): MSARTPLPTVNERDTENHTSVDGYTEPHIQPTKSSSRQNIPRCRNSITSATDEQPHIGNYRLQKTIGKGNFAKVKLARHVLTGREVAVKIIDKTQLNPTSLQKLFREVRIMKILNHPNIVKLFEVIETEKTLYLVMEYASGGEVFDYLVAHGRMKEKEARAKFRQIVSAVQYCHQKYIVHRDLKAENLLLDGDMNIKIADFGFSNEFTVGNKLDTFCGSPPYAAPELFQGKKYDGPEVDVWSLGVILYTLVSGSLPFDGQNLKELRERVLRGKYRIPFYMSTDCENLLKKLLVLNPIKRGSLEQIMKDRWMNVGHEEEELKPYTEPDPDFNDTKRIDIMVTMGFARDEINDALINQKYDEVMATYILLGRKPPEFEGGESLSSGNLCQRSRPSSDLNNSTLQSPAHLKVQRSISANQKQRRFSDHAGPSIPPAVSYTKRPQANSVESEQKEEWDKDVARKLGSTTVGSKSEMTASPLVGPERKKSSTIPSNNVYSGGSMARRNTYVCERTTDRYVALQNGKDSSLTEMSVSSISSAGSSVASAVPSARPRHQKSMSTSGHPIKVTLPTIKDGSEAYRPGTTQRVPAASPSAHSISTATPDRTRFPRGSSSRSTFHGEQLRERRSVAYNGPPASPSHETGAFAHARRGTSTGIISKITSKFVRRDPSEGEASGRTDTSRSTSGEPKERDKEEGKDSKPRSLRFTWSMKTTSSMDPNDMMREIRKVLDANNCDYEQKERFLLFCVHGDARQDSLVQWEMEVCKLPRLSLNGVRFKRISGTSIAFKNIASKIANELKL
Chain of UniProt Q00535 (whole entry, looked up): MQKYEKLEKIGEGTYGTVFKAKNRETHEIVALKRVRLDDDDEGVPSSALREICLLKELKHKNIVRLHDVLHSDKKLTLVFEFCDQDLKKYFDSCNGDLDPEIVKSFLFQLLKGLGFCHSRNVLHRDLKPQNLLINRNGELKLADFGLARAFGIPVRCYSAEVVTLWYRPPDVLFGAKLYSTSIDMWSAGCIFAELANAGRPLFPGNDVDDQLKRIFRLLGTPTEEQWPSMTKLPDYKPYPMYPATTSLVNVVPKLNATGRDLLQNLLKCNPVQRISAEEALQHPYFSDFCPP
Chain of UniProt P37023 (whole entry, looked up): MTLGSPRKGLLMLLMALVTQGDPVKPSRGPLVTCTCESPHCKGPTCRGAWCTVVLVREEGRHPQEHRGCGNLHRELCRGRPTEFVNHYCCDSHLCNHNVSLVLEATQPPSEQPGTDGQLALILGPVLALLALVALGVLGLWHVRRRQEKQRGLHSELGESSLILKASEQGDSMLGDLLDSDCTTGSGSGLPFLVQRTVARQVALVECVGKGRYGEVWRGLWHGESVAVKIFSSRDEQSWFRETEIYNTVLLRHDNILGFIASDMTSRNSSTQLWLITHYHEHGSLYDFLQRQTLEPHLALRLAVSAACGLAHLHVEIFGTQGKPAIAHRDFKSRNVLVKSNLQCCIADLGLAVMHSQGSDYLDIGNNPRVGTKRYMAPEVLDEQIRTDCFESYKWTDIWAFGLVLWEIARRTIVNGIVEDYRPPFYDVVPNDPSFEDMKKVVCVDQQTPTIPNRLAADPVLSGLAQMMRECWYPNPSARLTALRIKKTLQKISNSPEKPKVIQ
Chain of UniProt P11309 (whole entry, looked up): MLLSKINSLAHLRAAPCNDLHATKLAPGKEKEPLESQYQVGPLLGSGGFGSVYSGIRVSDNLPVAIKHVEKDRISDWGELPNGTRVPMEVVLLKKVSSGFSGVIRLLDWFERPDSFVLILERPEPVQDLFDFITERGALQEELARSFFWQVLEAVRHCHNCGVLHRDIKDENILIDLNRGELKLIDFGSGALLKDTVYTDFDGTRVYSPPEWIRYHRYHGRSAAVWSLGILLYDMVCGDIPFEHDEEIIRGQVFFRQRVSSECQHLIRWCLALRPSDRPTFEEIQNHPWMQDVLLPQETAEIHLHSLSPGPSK

Study 1 — organism: Sarcocystis neurona; effect on: parasite growth; tested at: 10 µM; notes: secondary screen; quantity: inhibition
Oc1cc(Cl)ccc1Oc1ccc(Cl)cc1Cl: 20.2%
Br.COc1ccc2c(c1)[C@]13CCCC[C@@H]1[C@H](C2)N(C)CC3: -34.5%
CCOC(=O)C1(c2ccccc2)CCN(CCC(C#N)(c2ccccc2)c2ccccc2)CC1: -2.3%

Study 2 — technique: CCK-8; quantity: survival
SMILES: CC[C@@H](C)c1nc2cc(Nc3ccnc4ccc(S(=O)(=O)C(C)C)cc34)ccc2s1.Cl
L929 RIPK3-/- reexpressing RIPK3 K51A; 12.5 µM, with: zVAD: 99.5% and 114% and 102%
L929 RIPK3-/- reexpressing RIPK3 K51A; 1.563 µM: 101% and 87.7% and 102% and 89.4% and 94.1%
L929 RIPK3-/- reexpressing RIPK3 K51A; 1.563 µM, with: zVAD: 99.6% and 102% and 97.9% and 99.8% and 90.9%
L929 RIPK3-/- reexpressing RIPK3 K51A; 3.125 µM, with: zVAD: 90.3% and 93.9% and 88% and 102% and 100%
L929 RIPK3-/- reexpressing RIPK3 K51A/R69H; 1.563 µM: 98% and 99.1% and 90.2% and 97.7%

Study 3 — cell line: mouse MPNST tumor cells; technique: high-content immunofluorescence imaging; measured: nuclear SOX9; tested at: 10 µM; time: 12 h; notes: mean of 2 replicates; relative to: DMSO control; direction: higher = more nuclear SOX9; quantity: nuclear SOX9 intensity
COc1ccc(CNC(=O)C=Cc2ccc3[nH]cc(CCN(C)C)c3c2)cc1: 116 % of DMSO
Oc1ccc2c3c1O[C@H]1c4[nH]c5ccccc5c4C[C@@]4(O)[C@@H](C2)N(CC2CC2)CC[C@]314: 156 % of DMSO
O=C(O)CNC(=O)c1c(O)c2ccccc2n(Cc2ccccc2)c1=O: 105 % of DMSO
O=C(O)CCCc1ccc(N(CCCl)CCCl)cc1: 109 % of DMSO

Study 4 — host: mouse; medium: microsomes or S9; tested at: 2 µM; time: 0.5 h; quantity: remaining compound
Cc1cc(Cl)cc(C(=O)N[C@H](C)CO)c1NC(=O)c1cc(Br)nn1-c1ncccc1Cl: 74.5%
Cc1c(C(=O)NC(C(=O)O)C(C)C)c2cc(F)ccc2n1CC(C)(C)O (stereo not drawn): > 99%
CC(N)Cc1ccccc1[S+]([O-])c1ccccc1 (stereo not drawn): 61.1%

Study 5 — effect on: enzyme activity; mode: inhibitor; tested at: 0.5 µM; relative to: control; quantity: remaining activity
SMILES: O=C1NC(=O)c2c1c1c3ccccc3n3c1c1c2c2ccccc2n1[C@H]1CC[C@@H]3O1
Cyclin-dependent kinase 5, with p35 (CDK5, Homo sapiens, UniProt Q00535): 23.3%
ACVRL1 (Homo sapiens, UniProt P37023): 78.6%
ERBB2 (Homo sapiens, UniProt P04626): 98.4%
PIM1 (Homo sapiens, UniProt P11309): 0.435%
MARK1 (Homo sapiens, UniProt Q9P0L2): 10.4%
MELK (Homo sapiens, UniProt Q14680): 7.13%

Study 6 — effect on: ligand displacement; tested at: 10 µM; quantity: inhibition
Target: 5-hydroxytryptamine receptor 2A (HTR2A, Homo sapiens, UniProt P28223)
Chain of UniProt P28223 (whole entry, looked up): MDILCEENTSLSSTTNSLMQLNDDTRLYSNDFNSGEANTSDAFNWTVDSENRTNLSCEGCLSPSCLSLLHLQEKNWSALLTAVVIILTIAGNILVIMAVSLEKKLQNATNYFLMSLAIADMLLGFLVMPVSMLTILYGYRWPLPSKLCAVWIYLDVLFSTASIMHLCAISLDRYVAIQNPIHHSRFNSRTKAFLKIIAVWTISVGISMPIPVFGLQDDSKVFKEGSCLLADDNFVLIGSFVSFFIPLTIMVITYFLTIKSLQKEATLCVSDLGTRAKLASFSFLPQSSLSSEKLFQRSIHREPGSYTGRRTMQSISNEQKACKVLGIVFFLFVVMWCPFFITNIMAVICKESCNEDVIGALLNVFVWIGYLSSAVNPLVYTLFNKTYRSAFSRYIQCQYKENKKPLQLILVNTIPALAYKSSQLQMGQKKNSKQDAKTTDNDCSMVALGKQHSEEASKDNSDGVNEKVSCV
Cc1c[nH]c2nccc(Oc3c(F)cc(Nc4cc(Cl)nc(N)n4)cc3F)c12: -13.2%
CC(C)CC(=O)N1CCc2nc(-c3ccc(Br)cc3)nc(N(C)Cc3ccccc3)c2C1: 3%
O=C(Nc1ccc(Oc2ccc(F)cc2)cc1)N1CCc2ncccc2[C@H]1c1ccc(F)cc1: 54.5%
O=C(N[C@H]1CCCCC/C=C\C2C[C@@]2(C(=O)O)NC(=O)[C@@H]2C[C@@H](Oc3ccncc3)CN2C1=O)OC1CCCC1 (stereo partly drawn): -7.7%
CN([C@@H]1CCc2c(CC(=O)O)c3ccccc3n2C1)S(=O)(=O)c1ccc(F)cc1: -6.57%
CCS(=O)(=O)c1cc2cc(C[C@](O)(CC(C)(C)c3ccc(F)cc3C(N)=O)C(F)(F)F)[nH]c2cn1: 12.6%
COc1cccc(CNC(=O)c2nc3scc(COCc4ccc(C(=O)O)cc4)c3c(=O)[nH]2)c1: -19.5%
Cn1nc(C(=O)NCc2ccc(C(=O)O)cc2)cc1-c1ccc2[nH]ccc2c1: 23.6%
CCCCN(CCCC)C(=O)CN1C[C@@H](c2cc(OC)c3c(c2)OCO3)[C@H](C(=O)O)[C@H]1CC(C)(C)CCC: 7.84%
O=C(Nc1cccnn1)N1CC(CC=Cc2cncc(Oc3ccc(C(F)(F)F)cn3)n2)C1: -3.55%
Cc1c(N2CCNCC2)nc2ccc(Br)cc2c1C(=O)NC[C@H](CCC(=O)O)c1ccccc1Cl: 38%
CC1=C(C#N)C(c2ccc3[nH]nc(C)c3c2)C(C#N)=C(C)N1: 8.75%
O=C(NCCCC1CCCCC1)c1ccc(CNC(=O)c2cnn(-c3ccccc3)c2C(F)(F)F)cc1: 8.57%
O=C(O)[C@H]1[C@H](Cn2nnc3ccccc3c2=O)CC[C@@H]1C(=O)c1ccc(OCCC2CCOCC2)cc1: 16.2%
O=C(NCc1ncc(C(F)(F)F)cc1Cl)c1ccc2c(c1)C1(CCS(=O)(=O)CC1)[C@H](C1CC1)N2S(=O)(=O)c1ccc(F)cc1: -4.7%
CC(=O)C1=C(C)N(c2cccc(C(F)(F)F)c2)C(=O)N[C@H]1c1ccc(C#N)nc1: -6.25%
Cc1cc(C)c(-n2ccn3nc(-c4cccnc4)cc23)cc1NC(=O)c1cc(C#N)cc(S(F)(F)(F)(F)F)c1: -4.7%
O=C1NC(c2ccccn2)Sc2ccccc21 (stereo not drawn): -12.3%
Cc1ncc(-c2cc(Cl)ccc2F)cc1-n1c(=O)n(CC(N)=O)c2ccccc21: 11.2%
CO[C@@H](C)c1c(Nc2ccc([C@@H](N(C)C(=O)C3CCS(=O)(=O)CC3)C(F)(F)F)cc2)cnc2cc(Cl)nn12: 4.93%
N#CN1CC[C@@H](C(=O)Nc2nc3c(s2)CN(C(=O)CN=[N+]=[N-])CC3)C1: 3.66%
O=C(Nc1cnc(Oc2ccc(F)cc2)nc1)N1CCc2ncccc2[C@@H]1c1ccc(F)cc1: 8.72%
C[C@@H]1CN(c2cc(-c3nn(C)c4ccc(OC5(C)CC5)cc34)ncn2)C[C@H](C)O1: 3.31%
O=c1nc(-c2ccccn2)sc2ccccc12: -11.2%
O=S(=O)(NC1CCC(c2cc(F)ccc2F)(S(=O)(=O)c2ccc(Cl)cc2)CC1)C(F)(F)F (stereo not drawn): 31.2%

Study 7 — effect on: enzyme activity; mode: inhibitor; tested at: 10 µM; quantity: inhibition
Target: Calcium/calmodulin-dependent protein kinase type II subunit alpha (CAMK2A, Homo sapiens, UniProt Q9UQM7)
Chain of UniProt Q9UQM7 (whole entry, looked up): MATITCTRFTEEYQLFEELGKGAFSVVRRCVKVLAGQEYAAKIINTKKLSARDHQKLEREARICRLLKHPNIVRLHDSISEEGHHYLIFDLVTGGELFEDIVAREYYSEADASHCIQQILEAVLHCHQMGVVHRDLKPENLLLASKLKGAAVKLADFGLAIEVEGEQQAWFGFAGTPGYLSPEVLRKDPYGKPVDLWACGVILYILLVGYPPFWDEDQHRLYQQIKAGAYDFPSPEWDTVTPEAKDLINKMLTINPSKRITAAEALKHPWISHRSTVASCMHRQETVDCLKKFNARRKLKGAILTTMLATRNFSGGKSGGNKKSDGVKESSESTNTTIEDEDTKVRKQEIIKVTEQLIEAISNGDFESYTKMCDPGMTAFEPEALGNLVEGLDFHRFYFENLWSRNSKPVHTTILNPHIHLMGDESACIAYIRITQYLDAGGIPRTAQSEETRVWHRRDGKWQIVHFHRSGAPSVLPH
CNC[C@H](N)C(=O)O: 11%
C[C@]12CC[C@H](OS(=O)(=O)O)CC1=CC[C@@H]1[C@@H]2CC[C@]2(C)C(=O)CC[C@@H]12: -17%
C[N+]1(C)[C@@H]2CC[C@H]1CC(OC(=O)C(CO)c1ccccc1)C2 (stereo partly drawn): 2%

Single results of other studies — host: C57BL/6 CES1-/- mouse; route: intravenous; dose: 1 mg/kg
[N-]=[N+]=CC(=O)CC[C@H](N)C(=O)O — lymphocyte count: 0.48 and 0.69 and 0.57
CC(=O)N[C@@H](Cc1c[nH]c2ccccc12)C(=O)N[C@@H](CCC(=O)C=[N+]=[N-])C(=O)OC(C)C — lymphocyte count: 1.96 and 1.69 and 4.18

Some of these lines once more (study 3):
O=C(O)CNC(=O)c1c(O)c2ccccc2n(Cc2ccccc2)c1=O: 105 % of DMSO
COc1ccc(CNC(=O)C=Cc2ccc3[nH]cc(CCN(C)C)c3c2)cc1: 116 % of DMSO
O=C(O)CCCc1ccc(N(CCCl)CCCl)cc1: 109 % of DMSO
Oc1ccc2c3c1O[C@H]1c4[nH]c5ccccc5c4C[C@@]4(O)[C@@H](C2)N(CC2CC2)CC[C@]314: 156 % of DMSO
